Published values gathered from unrelated publications.
“And” joins repeats or separate records; there may be more than shown. Numbers after ± are the reported error.
POLB I260M: DNA polymerase beta (POLB, Homo sapiens, UniProt P06746, I260M)
Eif4e: Eukaryotic translation initiation factor 4E (Eif4e, Mus musculus, UniProt P63073)
UniProt P63073, sequence (whole entry, looked up): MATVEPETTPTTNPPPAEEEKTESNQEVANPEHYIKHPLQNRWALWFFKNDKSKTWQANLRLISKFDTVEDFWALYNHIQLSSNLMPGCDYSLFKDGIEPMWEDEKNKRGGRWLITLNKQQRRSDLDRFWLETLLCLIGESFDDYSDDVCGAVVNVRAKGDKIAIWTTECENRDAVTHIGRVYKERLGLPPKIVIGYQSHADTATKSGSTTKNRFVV
CXCL8: Interleukin-8 (CXCL8, Homo sapiens, UniProt P10145)
UniProt P10145, sequence (whole entry, looked up): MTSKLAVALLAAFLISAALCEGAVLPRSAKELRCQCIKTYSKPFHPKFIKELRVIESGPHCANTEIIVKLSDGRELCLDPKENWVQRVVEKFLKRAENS
UniProt P35968, sequence (whole entry, looked up): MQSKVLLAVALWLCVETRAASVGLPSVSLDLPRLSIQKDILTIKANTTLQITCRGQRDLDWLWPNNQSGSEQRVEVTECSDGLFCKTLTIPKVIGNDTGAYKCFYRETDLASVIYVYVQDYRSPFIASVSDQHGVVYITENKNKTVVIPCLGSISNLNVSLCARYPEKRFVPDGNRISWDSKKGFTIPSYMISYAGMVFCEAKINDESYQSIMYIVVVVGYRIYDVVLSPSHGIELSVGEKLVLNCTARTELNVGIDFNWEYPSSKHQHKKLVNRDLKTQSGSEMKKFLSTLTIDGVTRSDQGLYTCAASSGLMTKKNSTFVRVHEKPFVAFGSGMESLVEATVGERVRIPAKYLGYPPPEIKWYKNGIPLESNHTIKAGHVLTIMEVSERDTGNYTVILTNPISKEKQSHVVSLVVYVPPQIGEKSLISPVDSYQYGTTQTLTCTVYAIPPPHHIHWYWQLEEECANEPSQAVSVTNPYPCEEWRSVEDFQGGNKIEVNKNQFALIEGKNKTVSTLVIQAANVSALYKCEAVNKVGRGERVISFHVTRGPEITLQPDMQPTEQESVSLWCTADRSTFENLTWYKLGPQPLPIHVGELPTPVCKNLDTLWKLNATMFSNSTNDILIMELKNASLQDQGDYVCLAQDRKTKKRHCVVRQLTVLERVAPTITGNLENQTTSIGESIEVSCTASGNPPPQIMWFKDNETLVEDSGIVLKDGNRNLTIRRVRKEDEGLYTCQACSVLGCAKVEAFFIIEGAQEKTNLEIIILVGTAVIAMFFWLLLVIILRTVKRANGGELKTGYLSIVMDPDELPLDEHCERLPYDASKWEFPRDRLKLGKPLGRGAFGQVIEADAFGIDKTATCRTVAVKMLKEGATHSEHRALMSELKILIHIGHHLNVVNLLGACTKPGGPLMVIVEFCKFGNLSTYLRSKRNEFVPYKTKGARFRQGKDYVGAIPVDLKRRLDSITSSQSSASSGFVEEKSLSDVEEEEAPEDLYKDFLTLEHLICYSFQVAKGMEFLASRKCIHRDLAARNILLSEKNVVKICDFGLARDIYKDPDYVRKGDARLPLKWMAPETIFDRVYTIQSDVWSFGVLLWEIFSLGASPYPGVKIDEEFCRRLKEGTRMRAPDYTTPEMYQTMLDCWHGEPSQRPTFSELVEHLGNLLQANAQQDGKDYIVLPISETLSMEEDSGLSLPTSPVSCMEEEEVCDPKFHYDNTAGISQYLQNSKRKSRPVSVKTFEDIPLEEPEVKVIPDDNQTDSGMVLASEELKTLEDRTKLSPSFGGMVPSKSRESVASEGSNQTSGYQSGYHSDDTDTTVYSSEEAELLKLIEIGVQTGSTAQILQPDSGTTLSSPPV
UniProt Q92793, sequence (whole entry, looked up): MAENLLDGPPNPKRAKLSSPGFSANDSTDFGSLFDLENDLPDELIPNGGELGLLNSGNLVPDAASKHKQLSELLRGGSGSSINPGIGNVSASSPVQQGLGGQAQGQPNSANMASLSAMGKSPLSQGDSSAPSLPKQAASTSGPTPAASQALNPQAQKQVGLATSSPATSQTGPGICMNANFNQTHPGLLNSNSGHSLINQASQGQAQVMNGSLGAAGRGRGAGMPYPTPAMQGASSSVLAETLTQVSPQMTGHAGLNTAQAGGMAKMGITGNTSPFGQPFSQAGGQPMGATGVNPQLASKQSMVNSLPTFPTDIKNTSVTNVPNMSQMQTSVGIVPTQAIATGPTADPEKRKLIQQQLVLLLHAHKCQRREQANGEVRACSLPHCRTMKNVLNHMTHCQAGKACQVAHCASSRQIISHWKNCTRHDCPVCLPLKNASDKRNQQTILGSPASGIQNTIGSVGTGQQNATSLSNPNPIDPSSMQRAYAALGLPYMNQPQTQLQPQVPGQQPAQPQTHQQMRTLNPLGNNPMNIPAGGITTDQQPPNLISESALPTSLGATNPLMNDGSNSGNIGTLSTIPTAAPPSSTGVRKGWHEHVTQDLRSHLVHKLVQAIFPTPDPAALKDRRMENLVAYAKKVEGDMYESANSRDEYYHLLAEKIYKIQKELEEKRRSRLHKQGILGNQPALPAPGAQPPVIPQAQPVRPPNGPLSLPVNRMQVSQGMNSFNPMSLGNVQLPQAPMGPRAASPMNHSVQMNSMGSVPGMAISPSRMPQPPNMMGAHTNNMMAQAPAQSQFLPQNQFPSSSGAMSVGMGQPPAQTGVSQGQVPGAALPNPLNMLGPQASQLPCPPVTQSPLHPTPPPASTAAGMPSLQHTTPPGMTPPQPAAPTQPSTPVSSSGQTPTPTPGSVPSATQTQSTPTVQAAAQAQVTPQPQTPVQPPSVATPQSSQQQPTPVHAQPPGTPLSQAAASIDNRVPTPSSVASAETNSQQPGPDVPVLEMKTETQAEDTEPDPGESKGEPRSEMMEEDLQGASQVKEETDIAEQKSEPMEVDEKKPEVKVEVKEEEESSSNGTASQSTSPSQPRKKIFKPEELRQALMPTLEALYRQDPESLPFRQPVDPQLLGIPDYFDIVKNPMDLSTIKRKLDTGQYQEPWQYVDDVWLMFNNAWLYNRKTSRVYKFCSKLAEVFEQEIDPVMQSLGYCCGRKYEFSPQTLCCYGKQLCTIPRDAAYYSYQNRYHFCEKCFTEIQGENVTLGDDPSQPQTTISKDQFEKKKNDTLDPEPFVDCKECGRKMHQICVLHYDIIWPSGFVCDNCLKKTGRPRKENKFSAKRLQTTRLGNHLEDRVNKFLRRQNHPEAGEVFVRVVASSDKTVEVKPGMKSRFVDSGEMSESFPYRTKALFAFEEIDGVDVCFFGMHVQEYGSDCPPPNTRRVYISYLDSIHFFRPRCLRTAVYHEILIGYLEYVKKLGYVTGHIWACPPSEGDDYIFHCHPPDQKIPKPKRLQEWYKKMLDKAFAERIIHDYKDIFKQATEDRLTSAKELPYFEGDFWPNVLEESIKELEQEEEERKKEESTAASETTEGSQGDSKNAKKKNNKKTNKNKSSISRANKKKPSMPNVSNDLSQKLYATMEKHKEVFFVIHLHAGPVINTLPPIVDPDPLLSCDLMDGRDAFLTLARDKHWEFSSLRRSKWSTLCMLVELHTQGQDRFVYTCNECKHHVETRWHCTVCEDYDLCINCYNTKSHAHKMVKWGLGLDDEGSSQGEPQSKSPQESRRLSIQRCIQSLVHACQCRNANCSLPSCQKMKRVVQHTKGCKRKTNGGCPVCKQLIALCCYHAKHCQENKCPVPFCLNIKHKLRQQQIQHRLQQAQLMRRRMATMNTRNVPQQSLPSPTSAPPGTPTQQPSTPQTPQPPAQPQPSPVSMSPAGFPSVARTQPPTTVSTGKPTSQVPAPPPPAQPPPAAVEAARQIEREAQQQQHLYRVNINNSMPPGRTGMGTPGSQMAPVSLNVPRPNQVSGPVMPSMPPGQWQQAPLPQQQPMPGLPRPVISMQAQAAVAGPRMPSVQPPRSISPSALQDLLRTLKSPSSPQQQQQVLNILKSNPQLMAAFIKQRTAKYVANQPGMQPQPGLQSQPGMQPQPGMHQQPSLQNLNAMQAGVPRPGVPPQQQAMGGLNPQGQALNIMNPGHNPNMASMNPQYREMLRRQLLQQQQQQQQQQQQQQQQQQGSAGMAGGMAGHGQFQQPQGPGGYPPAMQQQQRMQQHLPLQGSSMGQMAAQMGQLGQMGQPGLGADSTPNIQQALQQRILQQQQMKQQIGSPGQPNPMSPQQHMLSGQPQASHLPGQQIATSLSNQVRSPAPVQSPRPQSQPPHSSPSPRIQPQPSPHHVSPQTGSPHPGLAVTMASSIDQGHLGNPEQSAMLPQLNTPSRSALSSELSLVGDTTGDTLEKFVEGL
UniProt P20248, sequence (whole entry, looked up): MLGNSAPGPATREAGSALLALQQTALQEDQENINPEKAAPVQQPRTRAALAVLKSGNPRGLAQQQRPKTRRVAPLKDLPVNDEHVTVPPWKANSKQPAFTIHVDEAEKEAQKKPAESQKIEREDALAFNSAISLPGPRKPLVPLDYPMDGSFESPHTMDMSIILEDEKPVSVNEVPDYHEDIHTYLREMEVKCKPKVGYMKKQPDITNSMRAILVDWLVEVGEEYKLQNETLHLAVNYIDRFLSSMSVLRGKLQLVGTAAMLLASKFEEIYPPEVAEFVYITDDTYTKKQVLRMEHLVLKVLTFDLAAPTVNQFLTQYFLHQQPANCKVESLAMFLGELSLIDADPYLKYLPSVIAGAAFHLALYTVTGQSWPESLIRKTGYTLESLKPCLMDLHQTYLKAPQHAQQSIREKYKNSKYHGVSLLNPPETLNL
UniProt O00214, sequence (whole entry, looked up): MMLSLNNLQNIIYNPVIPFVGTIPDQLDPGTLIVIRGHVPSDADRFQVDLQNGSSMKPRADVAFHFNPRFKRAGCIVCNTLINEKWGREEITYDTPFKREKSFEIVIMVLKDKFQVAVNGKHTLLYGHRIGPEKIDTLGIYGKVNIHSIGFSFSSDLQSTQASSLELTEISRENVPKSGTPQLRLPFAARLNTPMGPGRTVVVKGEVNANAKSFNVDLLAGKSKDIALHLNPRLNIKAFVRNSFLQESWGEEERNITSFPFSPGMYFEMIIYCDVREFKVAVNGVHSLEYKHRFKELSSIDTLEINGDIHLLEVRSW

Compound	target	assay	test system	conditions	Kd
C[C@H](NC(=O)[C@H](Cc1ccccc1)NC(=O)c1ccc(C(F)(F)F)cc1)C(=O)N[C@H](C(=O)N[C@@H](CCCC[N+](C)(C)C)C(=O)N[C@@H](CO)C(N)=O)C1CCCC1	Chromobox protein homolog 7 (Homo sapiens, UniProt O95931)	binding, ITC	–	pH 8	0.22 µM
O=C(NCCC#Cc1cc(Nc2nccc(-c3ccn([C@H](CO)c4ccc(Cl)c(F)c4)c(=O)c3)n2)ccn1)OC1CC/C=C/CCC1 (stereo partly drawn)	Mitogen-activated protein kinase 1 (MAPK1, Homo sapiens, UniProt P28482)	binding, SPR	–	–	0.046 µM
Cc1cn([C@H]2C[C@H](O)[C@@H](COP(=O)(O)OP(=O)(O)C(Br)(Br)P(=O)(O)O)O2)c(=O)[nH]c1=O	POLB I260M	substrate, single turnover kinetics	–	37 °C	43.9 ± 10.5 µM
CC[C@H](C)[C@H](NC(=O)[C@H](CC(C)C)NC(=O)[C@H](CCCNC(=N)N)NC(=O)c1ccc(CN2CCN(C)CC2)cc1)C(=O)N[C@@H](Cc1ccccc1)C(N)=O	Cyclin-A2 (CCNA2, Homo sapiens, UniProt P20248)	binding, tryptophan fluorescence titration	–	co-expressed trigger factor	4.77 ± 0.417 µM
C[n+]1cn([C@@H]2O[C@H](COP(=O)(O)OP(=O)([O-])OP(=O)(O)OC[C@H]3O[C@@H](n4cnc5c(NCCCCCCN)ncnc54)[C@H](O)[C@@H]3O)[C@@H](O)[C@H]2O)c2nc(N)nc(O)c21	Eif4e	cap analogue binding, pyrene fluorescence competition	–	20 °C	0.88 µM and 0.884 µM
CC[C@H](C)[C@@H]1NC(=O)[C@H](C)NC(=O)[C@H](C)NC(=O)[C@H]([C@@H](C)O)NC(=O)[C@H](Cc2ccccc2)NC(=O)[C@@H]2CSSC[C@@H]3NC(=O)[C@H](C(C)C)NC(=O)[C@H](CCCCN)NC(=O)[C@H](CO)NC(=O)[C@H](CCCCN)NC(=O)[C@@H]4CSSC[C@H](NC(=O)[C@H](CO)NC(=O)[C@H](CCC(=O)O)NC(=O)CNC(=O)[C@H](CSSC[C@H](NC(=O)CNC1=O)C(=O)N[C@@H](C)C(=O)N4)NC(=O)[C@@H]1CCCN1C(=O)[C@H](Cc1ccccc1)NC(=O)CNC(=O)[C@H](CC(N)=O)NC(=O)[C@H](CCCCN)NC(=O)[C@H](Cc1ccc(O)cc1)NC3=O)C(=O)N[C@@H](C(C)C)C(=O)N[C@@H](Cc1ccc(O)cc1)C(=O)N[C@@H](CC(C)C)C(=O)N1CCC[C@H]1C(=O)N2	POPC/POPE lipid membrane	membrane binding, surface plasmon resonance	POPC/POPE 80:20 vesicles	pH 7.4	4.2 ± 0.23 µM
CCN(C(=O)c1cc(F)ccc1Oc1nncnc1N1CCC2(C1)CN([C@H](CCCN(C)CCOC)C(C)C)C2)C(C)C	Lysosomal Pro-X carboxypeptidase (PRCP, Homo sapiens, UniProt P42785)	affinity chromatography mass spectrometry	–	–	> 10 µM
O=S(=O)(O)C[C@H]1CNC[C@@H](O)[C@@H]1O	Sulfoquinovosidase (yihQ, Escherichia coli, UniProt P32138)	–	–	–	0.96 ± 0.12 µM
NS(=O)(=O)c1c(F)c(F)c(S(=O)(=O)CCc2ccccc2)c(N[C@H]2CCc3ccccc32)c1F	Carbonic anhydrase 2 (CA2, Homo sapiens, UniProt P00918, A65S/F130A/I91T/L203N/N67K/V134S)	–	–	pH 7	0.027 µM
CC(=O)N[C@@H]1[C@@H](O[C@@H]2O[C@H](C(=O)O)[C@@H](O[C@@H]3O[C@H](COS(=O)(=O)O)[C@@H](OS(=O)(=O)O)[C@H](O[C@@H]4O[C@H](C(=O)O)[C@@H](OS(=O)(=O)O)[C@H](OS(=O)(=O)O)[C@H]4OS(=O)(=O)O)[C@H]3NC(C)=O)[C@H](OS(=O)(=O)O)[C@H]2OS(=O)(=O)O)[C@H](OS(=O)(=O)O)[C@@H](COS(=O)(=O)O)O[C@H]1SCCOCCOCCSSCCOCCOCCS[C@@H]1O[C@H](COS(=O)(=O)O)[C@@H](OS(=O)(=O)O)[C@H](O[C@@H]2O[C@H](C(=O)O)[C@@H](O[C@@H]3O[C@H](COS(=O)(=O)O)[C@@H](OS(=O)(=O)O)[C@H](O[C@@H]4O[C@H](C(=O)O)[C@@H](OS(=O)(=O)O)[C@H](OS(=O)(=O)O)[C@H]4OS(=O)(=O)O)[C@H]3NC(C)=O)[C@H](OS(=O)(=O)O)[C@H]2OS(=O)(=O)O)[C@H]1NC(C)=O	CXCL8	isothermal titration calorimetry	–	25 °C, protein 10 µM	0.016 µM
CCCc1cc2c3c(c1CCC)O[C@H](CO)[C@H](O)[C@@H]3OC2	Galectin-8 (LGALS8, Homo sapiens, UniProt O00214)	cell-free assay, FP	–	–	> 2000 µM
C=CC(=O)Nc1cc(Nc2nccc(-n3ccc4nc(OC)ccc43)n2)c(OC)cc1N(C)CCN(C)C	Vascular endothelial growth factor receptor 2 (KDR, Homo sapiens, UniProt P35968)	cell-free assay, competition with immobilised ligand	–	–	0.656 µM
CO[C@@H]1[C@H](O)[C@@H](COP(=O)(O)OP(=O)([O-])C(Cl)(Cl)P(=O)(O)OP(=O)(O)OC[C@H]2O[C@@H](n3cnc4c(=O)[nH]c(N)nc43)[C@H](O)[C@@H]2O)O[C@H]1n1c[n+](C)c2c(O)nc(N)nc21	Eukaryotic translation initiation factor 4E, residues 28-217 (Eif4e, Mus musculus, UniProt P63073)	binding, fluorescence quenching titration	–	pH 7.2, 20 °C	0.0121 µM
Nc1nc2c(ncn2[C@H]2C[C@H](O)[C@@H](COP(=O)(O)OP(=O)(O)[C@@H](F)P(=O)(O)O)O2)c(=O)[nH]1	DNA polymerase beta (POLB, Homo sapiens, UniProt P06746)	substrate, quench-flow kinetics	–	pH 8.0, 37 °C, misincorporation opposite T in gapped DNA	590 ± 110 µM
C[n+]1ccc(/C=N/NC(=O)c2cncc(C(=O)N/N=C/c3cc[n+](C)c4ccccc34)n2)c2ccccc21	MYC snap-back G4 DNA	binding, native ESI-MS	100 mM trimethylammonium acetate	1 mM KCl	0.075 µM
CC(P(=O)(O)O)P(=O)(O)OP(=O)(O)OCC1OC(n2cnc3c(=O)[nH]c(N)nc32)CC1O (mixture of isomers)	POLB I260M	nucleotide binding, substrate, single turnover kinetics	–	37 °C, dG misincorporation opposite A	236 ± 107 µM
C[n+]1cn(C2OC(COP(=O)(O)OP(=O)([O-])OP(=O)(O)OCC3OC(n4cnc5c(=O)[nH]c(N)nc54)C(O)C3O)C(O)C2O)c2nc(NCc3ccccc3)[nH]c(=O)c21 (stereo not drawn)	Eif4e	differential scanning fluorimetry	–	–	5.03 µM
CCOc1ccc(C(C)=O)cc1NC(=O)c1cc(NC(C)=O)cc(NC(C)=O)c1	CREB-binding protein, bromodomain (CREBBP, Homo sapiens, UniProt Q92793)	binding, competition with immobilised ligand	–	–	0.2 µM
CC(=O)N[C@@H]1[C@@H](O[C@@H]2O[C@H](C(=O)O)[C@@H](O[C@@H]3O[C@H](COS(=O)(=O)O)[C@@H](OS(=O)(=O)O)[C@H](O[C@@H]4O[C@H](C(=O)O)[C@@H](OS(=O)(=O)O)[C@H](OS(=O)(=O)O)[C@H]4OS(=O)(=O)O)[C@H]3NC(C)=O)[C@H](OS(=O)(=O)O)[C@H]2OS(=O)(=O)O)[C@H](OS(=O)(=O)O)[C@@H](COS(=O)(=O)O)O[C@H]1N=[N+]=[N-]	CXCL8	ligand displacement, FP	–	–	5 µM
Cc1cn(C2CC(O)C(COP(=O)(O)OP(=O)(O)C(F)P(=O)(O)O)O2)c(=O)[nH]c1=O (mixture of isomers)	POLB I260M	substrate, single turnover kinetics	–	37 °C	86.4 ± 46.5 µM
CC[C@H](C)[C@@H]1NC(=O)[C@H](C)NC(=O)[C@H](C)NC(=O)[C@H]([C@@H](C)O)NC(=O)[C@H](Cc2ccccc2)NC(=O)[C@@H]2CSSC[C@@H]3NC(=O)[C@H](C(C)C)NC(=O)[C@H](CCCCN)NC(=O)[C@H](CO)NC(=O)[C@H](CCCCN)NC(=O)[C@@H]4CSSC[C@H](NC(=O)[C@H](CO)NC(=O)[C@H](CCC(=O)O)NC(=O)CNC(=O)[C@H](CSSC[C@H](NC(=O)CNC1=O)C(=O)N[C@@H](CO)C(=O)N4)NC(=O)[C@@H]1CCCN1C(=O)[C@H](Cc1ccccc1)NC(=O)CNC(=O)[C@H](CC(N)=O)NC(=O)[C@H](CCCCN)NC(=O)[C@H](Cc1ccc(O)cc1)NC3=O)C(=O)N[C@@H](C(C)C)C(=O)N[C@@H](Cc1ccc(O)cc1)C(=O)N[C@@H](C)C(=O)N1CCC[C@H]1C(=O)N2	POPC/POPE lipid membrane	membrane binding, surface plasmon resonance	POPC/POPE 80:20 vesicles	pH 7.4	21.5 ± 0.45 µM

A few entries again:
Compound	target	assay	test system	conditions	Kd
C=CC(=O)Nc1cc(Nc2nccc(-n3ccc4nc(OC)ccc43)n2)c(OC)cc1N(C)CCN(C)C	Vascular endothelial growth factor receptor 2 (KDR, Homo sapiens, UniProt P35968)	cell-free assay, competition with immobilised ligand	–	–	0.656 µM
